Measurements from different studies.
Each numbered part is a random draw from the data of one study; scales do not carry over between parts.

Study 1
Target: Interferon regulatory factor 7, full length, phosphomimetic (IRF7, Homo sapiens, UniProt Q92985, residues 1-503, S471D/S472D/S475D/S476D/S477D/S483D/S484D/S487D)
Method: protein-binding microarray
Form: double-stranded DNA, one strand shown
Matrix: in vitro
Tested at: 2200 nM top
Notes: 60-bp whole probe
Added: salmon DNA 0.4 mg/ml
Reference: random background probes
Reading: higher = stronger binding
Shared flanks, not repeated: GCCTAGCAC … GTCTTGATTCGCTTGACGCTGCTG
Construct (chain): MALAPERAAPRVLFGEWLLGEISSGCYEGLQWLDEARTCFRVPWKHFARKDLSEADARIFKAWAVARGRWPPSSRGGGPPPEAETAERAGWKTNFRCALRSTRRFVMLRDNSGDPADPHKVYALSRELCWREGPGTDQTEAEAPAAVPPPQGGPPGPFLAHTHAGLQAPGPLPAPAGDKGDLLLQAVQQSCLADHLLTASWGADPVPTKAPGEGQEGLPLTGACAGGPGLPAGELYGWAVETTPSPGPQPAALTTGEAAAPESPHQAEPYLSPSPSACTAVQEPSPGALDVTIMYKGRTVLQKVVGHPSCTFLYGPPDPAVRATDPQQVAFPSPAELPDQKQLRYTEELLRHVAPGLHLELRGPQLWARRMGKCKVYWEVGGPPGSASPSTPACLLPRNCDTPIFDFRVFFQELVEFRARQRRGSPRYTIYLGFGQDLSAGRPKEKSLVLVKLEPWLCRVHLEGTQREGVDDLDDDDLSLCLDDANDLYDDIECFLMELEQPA
`TTAGGTCTCCGTATCGGTTAGTGCTAG`: “fitted relative affinity” 0.582 z-score.
For `TCATTGGTTGAACATGAACTGTGCTAG`, “fitted relative affinity” read 0.351 z-score.
`TTAGGTTTCGACTTTGGGTTAGTGCTA` — result for “fitted relative affinity”: 5.52 z-score.
`TTAGGTTTCGATCTCGGTTAGTGCTAG` — result for “fitted relative affinity”: 6 z-score.
Under “fitted relative affinity”, `GACGATATCGGGTATCGATACGTGCTA` is recorded as 0.365 z-score.
`GACGGTTTAGGTTCCGGGACGTGCTAG`: “fitted relative affinity” 0.826 z-score.
For `TCTGTCCTGATAGCCCTGGCGTGCTAG`, “fitted relative affinity” read 0.718 z-score.
`TTAGATTTCACTATCGATTAGTGCTAG`: “fitted relative affinity” 1.47 z-score.
`GAGGGTATCCTTCTCCTGACGTGCTAG`: “fitted relative affinity” 0.145 z-score.
`TTAGATATCAGACTCGATTAGTGCTAG`: “fitted relative affinity” 0.239 z-score.
`TTAGGACTAGGTTTCGGTTAGTGCTAG` — result for “fitted relative affinity”: 4.96 z-score.
`GACGGTTTCGACACTCGGGACGTGCTA`: “fitted relative affinity” 3.22 z-score.
`TTAGATACCAGACTGGATTAGTGCTAG`: “fitted relative affinity” -0.00442 z-score.
Under “fitted relative affinity”, `GTAGATCTCAGACTGGATTAGTGCTAG` is recorded as 0.00471 z-score.
Under “fitted relative affinity”, `GACGAACTGAGTATCGATACGTGCTAG` is recorded as 0.274 z-score.
`GACGGTTTCCTACCGCTGACGTGCTAG`: “fitted relative affinity” 1.41 z-score.
`GACGGTATCCTACTACTGACGTGCTAG` — result for “fitted relative affinity”: 0.799 z-score.
`TTAGGACTGGGGTTTCGGGTAGTGCTA`: “fitted relative affinity” 1.77 z-score.
Under “fitted relative affinity”, `GACGATATCGGGTTTCGAGATGTGCTA` is recorded as 1.89 z-score.
`TTAGGTTTCGGGTATCGGCTAGTGCTA`: “fitted relative affinity” 6.05 z-score.

Study 2
Target: Sal-like protein 4, full length isoform B (SALL4, Homo sapiens, UniProt Q9UJQ4-2, residues 1-616)
Method: universal PBM
Form: double-stranded DNA, one strand shown
Matrix: in vitro
Tested at: not given
Notes: 8-mer, flanks averaged, mean of replicates
Reading: higher = stronger binding
`GTTCTGCA` gave an E-score of -0.0395.
With `GTAGGGAA` the E-score was 0.0109.
`AAGAGCCC` gave an E-score of -0.293.
`CAAGTATC` has an E-score of 0.0194.
`TAACACCA` gave an E-score of 0.142.
The E-score of `CGATTAGC` is reported as -0.148.
`ACTCGCAG` has an E-score of -0.124.
The E-score of `CTAAGATA` is reported as 0.106.
For `ACTGAGCT`, the E-score was -0.135.
The E-score of `CCTCAGCC` is reported as -0.189.
For `GCGTTAAA`, the E-score was -0.081.
For `GTGCCTCA`, the E-score was -0.221.
With `CACAGGTC` the E-score was -0.199.
For `GCAGTACC`, the E-score was -0.0749.
For `ACGCTCCA`, the E-score was -0.0615.
`GAATCTGC` gave an E-score of -0.141.
For `AACAGCCC`, the E-score was -0.198.
`GAGACTGC` has an E-score of -0.166.
The E-score of `ATCGAAGA` is reported as 0.239.
`GCCACAGA` gave an E-score of -0.155.
The E-score of `CGATTCCC` is reported as -0.169.
`GCTCATAA` has an E-score of 0.157.
The E-score of `CCGCCGAC` is reported as -0.314.
For `AAGTACGA`, the E-score was 0.228.
`AGTCCACA` gave an E-score of -0.162.

Study 3
Target: Histone acetyltransferase KAT6A, both winged helices, GST fusion (KAT6A, Homo sapiens, UniProt Q92794, residues 1-181)
Method: protein binding microarray
Form: double-stranded DNA, one strand shown
Matrix: in vitro
Tested at: not given
Notes: 8-mer, flanks averaged, mean of 2 arrays, mostly near background
Reference: not given
Reading: higher = stronger binding
Construct (chain): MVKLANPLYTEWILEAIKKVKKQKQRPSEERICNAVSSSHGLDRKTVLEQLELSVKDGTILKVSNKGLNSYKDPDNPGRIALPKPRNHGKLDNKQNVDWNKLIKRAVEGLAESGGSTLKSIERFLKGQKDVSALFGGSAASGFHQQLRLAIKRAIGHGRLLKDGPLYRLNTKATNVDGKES
With `ACAGTTAT` the E-score was -0.0511.
The E-score of `ATGGCGAG` is reported as -0.153.
With `CGCGTTCC` the E-score was 0.338.
`CTTATAAC` gave an E-score of -0.0419.
With `CCCTGGGA` the E-score was -0.0816.
For `GCCCATCC`, the E-score was -0.129.
For `CTTCCGTC`, the E-score was 0.247.
The E-score of `GCGCTGAC` is reported as 0.228.
With `GGGTATCA` the E-score was -0.0711.
`AGAACGAC` gave an E-score of -0.0119.
For `GAAACGTC`, the E-score was -0.0192.
`ATTCTCGC` gave an E-score of -0.105.
The E-score of `TCAATAGA` is reported as -0.19.
`GATGATAA` gave an E-score of -0.0345.
The E-score of `GCGTGCGA` is reported as 0.2.
The E-score of `AATCTTGG` is reported as -0.25.
`AGCTTCAG` has an E-score of -0.201.
The E-score of `ACATCCGC` is reported as 0.297.
`CAGAGCAA` gave an E-score of -0.249.
`CGTCAAAG` gave an E-score of -0.0662.
`AGAATCGG` has an E-score of 0.156.
For `GACTAGCC`, the E-score was -0.024.

Study 4
Target: RING finger protein unkempt homolog, zinc fingers 1-6, SBP tag (UNK, Homo sapiens, UniProt Q9C0B0, residues 30-357)
UniProt Q9C0B0, sequence (30-357, looked up): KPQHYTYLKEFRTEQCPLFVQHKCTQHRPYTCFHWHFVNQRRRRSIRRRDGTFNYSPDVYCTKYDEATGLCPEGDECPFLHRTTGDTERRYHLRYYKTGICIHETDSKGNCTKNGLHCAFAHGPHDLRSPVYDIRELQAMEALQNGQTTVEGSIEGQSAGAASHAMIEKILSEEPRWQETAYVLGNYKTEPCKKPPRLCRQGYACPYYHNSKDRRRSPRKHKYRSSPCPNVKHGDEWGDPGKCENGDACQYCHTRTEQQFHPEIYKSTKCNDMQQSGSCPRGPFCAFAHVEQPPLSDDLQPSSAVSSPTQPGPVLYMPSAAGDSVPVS
Method: RNA Bind-n-Seq
Form: RNA
Matrix: in vitro
Tested at: 100 nM
Notes: RNA with constant flanks, vertebrate orthologous sites, ends assumed
Reference: input RNA pool
Reading: higher = stronger binding
For `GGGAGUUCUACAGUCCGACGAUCCAUUAACACACGAAAUGUCUCCAGGGGGGUAUUAGAUUUGAUUUCUUACAUAUAAAACAAACCAACCAACCAUUUUUAAAGUAGAAGAGGGUUUUAGCUAGUAAAUGAAAUAUUCUUUUUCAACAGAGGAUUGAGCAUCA`, the bound/input enrichment was 2.09 ratio.
`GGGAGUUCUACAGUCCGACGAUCAAUUUUCUUAUUUUAGGUAUCAUUGCCCAAUGCCUAAGAUCUUUUAUGUUCAGCUGACUGUAGGAAAUAAUGAAUUUUUUGGAGAAGGAAAGACCCGACAAGCUGCUAGACACAAUGCUGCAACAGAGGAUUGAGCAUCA` gave a bound/input enrichment of 1.21 ratio.
For `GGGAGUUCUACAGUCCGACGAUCCUUUAUGAGAUUUGGACCUUGGAGCCGAACCAGCAAAAGUAAAGCCGACUUGUAAAAUUAUAGCCAUAUGCAGCUGUACAACAAUGCUACUACAAGCAGCUGUGUUAAAAUAUUUAUAAGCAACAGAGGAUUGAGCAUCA`, the bound/input enrichment was 0.548 ratio.
The bound/input enrichment of `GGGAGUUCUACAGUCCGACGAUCUCCCAGCACUUUGAUAAAAAGUGUGGACUGGCUGCUCGUAUUUUCCUUAUUCUUUUUAAUUAGUUUUAUUAUGUACGCUACCAUUCGAACGGAGAGUAUUCGGUGGCUAAUUCCGGGACACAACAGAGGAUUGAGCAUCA` is reported as 1.69 ratio.
`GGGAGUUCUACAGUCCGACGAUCUGCAUUAUUUGACCAGAGUUGAAGUGACAGAAUUUGAAGAUAUUAAAUCAGGUUACAGAAUAGAUUUUUAUUUUGAUGAAAAUCCUUACUUUGAAAAUAAAGUUCUCUCCAAAGAAUUUCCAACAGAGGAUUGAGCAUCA` has a bound/input enrichment of 0.246 ratio.
`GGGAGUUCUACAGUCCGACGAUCAUUGGAUGCAGUGUAACACUAUCCAAGGCAGUGACUUCAGCUUUAUAUACAUAUAAAAUAUAGUUAGUUUUAAAAUUAUUGACAUUUAUUUAAACUUUUAGAUUGGAUUGUUUGCUAUUGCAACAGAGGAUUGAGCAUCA` has a bound/input enrichment of 2.26 ratio.
`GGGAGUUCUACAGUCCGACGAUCUUAGGUAGGGGUAACCAUUAAUUUAUUUAAAGUAAAGAAAUGGAAUGUUGAAAAUCAUACUAGUACUAAGCUUAGCUGGAGAAUUUCUCCAGCUACACUUCACGCUCUCAUUCUCCAGUCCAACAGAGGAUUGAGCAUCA` gave a bound/input enrichment of 0.874 ratio.
With `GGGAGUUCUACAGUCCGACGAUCGUCCUACCUGUGCAGAUCUCACAACACUGAAUGCAAAGUAGCAAUGUUCAUAGCCACAGCACGGUAGCUUUAGGGCACUAUUGCCAUGGUUUUAUUCAUGUGCAAGUUUUGAAAAUGUAUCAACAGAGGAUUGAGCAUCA` the bound/input enrichment was 0.692 ratio.
For `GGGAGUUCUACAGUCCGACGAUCUACAAUAAUGAAAACCUACAGAAAUUUUAUUUUCAUUUUCCCCUUAGACAUACUUAGACUCUCUGCCCCUACCCCCAGGCAGAUCAUUCUGAGUGUGCGAGUGUGUUGUGUGUGCACAUGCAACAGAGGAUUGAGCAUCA`, the bound/input enrichment was 0.525 ratio.
For `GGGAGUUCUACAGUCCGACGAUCGCAAAUCCAAUCACUGUGAUAUUUAAAAUAUGCACAGUCCUAAUUCUUUCUUGAUGAUCCUAGUAUUUUUCUAGCUGUAUCUUUAUAUCUCAUACUGUUAUUUAUCAGUUUUGUUCCCCUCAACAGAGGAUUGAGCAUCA`, the bound/input enrichment was 0.94 ratio.
The bound/input enrichment of `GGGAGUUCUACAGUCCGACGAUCUUUUAAAGUCAUUUUUCACAUUUCCUGUAAAUAGUGGAUAAUCAUUUUUAUUUUAUUUUUAAGUGCUGUUUUAACAUGUGGACAGAUCAUAAAUGUACUUGCUGAAUUCAUUCUUUUUUUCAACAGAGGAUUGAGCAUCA` is reported as 0.676 ratio.

Study 5
Target: Eukaryotic initiation factor 4A-I (EIF4A1, Homo sapiens, UniProt P60842, residues 1-406, full length assumed)
UniProt P60842, sequence (whole entry, looked up): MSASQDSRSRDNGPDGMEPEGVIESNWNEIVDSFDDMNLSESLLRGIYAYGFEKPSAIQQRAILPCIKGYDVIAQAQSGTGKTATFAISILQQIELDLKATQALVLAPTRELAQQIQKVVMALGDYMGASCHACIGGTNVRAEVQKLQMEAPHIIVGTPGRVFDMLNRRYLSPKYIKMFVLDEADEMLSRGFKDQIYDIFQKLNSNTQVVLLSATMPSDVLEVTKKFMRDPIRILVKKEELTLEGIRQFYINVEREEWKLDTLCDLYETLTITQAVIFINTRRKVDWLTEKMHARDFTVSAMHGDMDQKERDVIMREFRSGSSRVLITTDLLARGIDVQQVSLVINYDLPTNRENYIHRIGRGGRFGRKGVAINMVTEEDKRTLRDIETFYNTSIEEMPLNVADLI
Method: RNA Bind-n-Seq
Form: RNA
Matrix: in vitro
Tested at: 15 pmol
Notes: 4-mer, random 30-nt RNA, single round
Added: 3 µM RocA, 2 mM AMP-PNP
Reference: mean of 4-mers
Reading: higher = stronger binding
`GGGA` — result for “4-mer enrichment Z-score”: 1.8.
For `AGUA`, “4-mer enrichment Z-score” read 0.919.
`ACUC` — result for “4-mer enrichment Z-score”: -1.29.
Under “4-mer enrichment Z-score”, `GUGA` is recorded as 2.04.
For `UUCC`, “4-mer enrichment Z-score” read -1.21.
Under “4-mer enrichment Z-score”, `ACUU` is recorded as -0.806.
For `UGUC`, “4-mer enrichment Z-score” read -0.709.
`CCGC` — result for “4-mer enrichment Z-score”: -0.731.
Under “4-mer enrichment Z-score”, `CUGG` is recorded as 0.173.
For `GUCC`, “4-mer enrichment Z-score” read -1.03.
For `UGAU`, “4-mer enrichment Z-score” read 0.568.
For `UUAU`, “4-mer enrichment Z-score” read -0.0883.
`CCAC`: “4-mer enrichment Z-score” -1.43.
`ACCG` — result for “4-mer enrichment Z-score”: -0.597.
`GCGA`: “4-mer enrichment Z-score” 1.27.
`AGGU` — result for “4-mer enrichment Z-score”: 1.08.

For quick reference, copied from above (study 5):
For `UGUC`, “4-mer enrichment Z-score” read -0.709.
`CCGC` — result for “4-mer enrichment Z-score”: -0.731.
Under “4-mer enrichment Z-score”, `CUGG` is recorded as 0.173.
For `GUCC`, “4-mer enrichment Z-score” read -1.03.
For `UGAU`, “4-mer enrichment Z-score” read 0.568.
For `UUAU`, “4-mer enrichment Z-score” read -0.0883.
`CCAC`: “4-mer enrichment Z-score” -1.43.
`ACCG` — result for “4-mer enrichment Z-score”: -0.597.
`GCGA`: “4-mer enrichment Z-score” 1.27.
`AGGU` — result for “4-mer enrichment Z-score”: 1.08.
